Measured values pooled from the literature.
Protocols differ between the studies behind these lines. Values joined by “and” are separate records of one study, mostly repeats; a detail may differ. ± marks the error that the study gave.

| SMILES | system | conditions | measurement | value |
| --- | --- | --- | --- | --- |
| COc1cc(N2CCN(C(=O)C3CCCN3)CC2)ccc1Nc1ncc(Cl)c(Nc2ccccc2P(C)(C)=O)n1 (centres unmarked) | nude mice, NCI-H3122 xenograft | oral, 25 mg/kg every two days, day 15 | tumour volume | 292 mm3 and 811 mm3 and 278 mm3 and 86.8 mm3 and 250 mm3 |
| COc1ccc(O)cc1-c1c[nH]c2ncc(-c3cncc(C(=O)N(C)C)c3)cc12 | NSG mice, K562 xenograft | ip, 0.0268 mmol/kg once daily, 16 days | tumour growth inhibition | 87.5 ± 1.3% |
| COc1c(Cl)cccc1Nc1c(-c2ccncc2C#C[C@@]2(C)CCCN2C(=O)/C=C/CN(C)C)[nH]c2c1C(=O)NCC2 | NCI-H2073 parental xenograft (EGFR wild-type), BALB/c nude mice | 25 mg/kg once daily, 21 days | tumour growth inhibition | 48.9% |
| CN1CCCNC(=O)c2cccc(c2)C(=O)NCCCN(C)CCCNc2cccc3c2C(=O)c2cccc(c2C3=O)NCCC1 | KSN/Slc nude mice, SAS xenograft | dose not given, day 4, 96 h | tumour volume | 156 mm3 and 165 mm3 and 222 mm3 and 228 mm3 and 86.5 mm3 |
| CCCCCC(=O)[O][Pt]([Cl])([Cl])[O]C(=O)CCCCC.N.N | A549/DDP xenograft, female nude mice | dose not given, together with: survivin siRNA 0.5 mg/kg | tumour volume doubling time | 7 days |
| COc1ccc(NC(=O)c2ccc3[nH]c(-c4ccc(N(C)C)cc4)nc3c2)cn1 | CT26, BALB/c mice, subcutaneous syngeneic graft | dose not given, day 11 | tumour volume | 349 mm3 and 486 mm3 and 392 mm3 and 585 mm3 and 470 mm3 |
| CCCCCCCC(=O)[O][Pt]([Cl])([Cl])[O]C(=O)CCCCCCC.N.N | A549/DDP xenograft, female nude mice | dose not given, together with: survivin siRNA 0.5 mg/kg | tumour volume doubling time | 10.2 days |
| COc1ccc(OCc2ccc([N+](=O)[O-])cc2)cc1-c1c[nH]c2ncc(-c3cncc(C(=O)N(C)C)c3)cc12 | NSG mice, K562 xenograft | ip, 0.0268 mmol/kg once daily, 16 days | tumour growth inhibition | 57 ± 3.8% |

A few entries again:
| SMILES | system | conditions | measurement | value |
| --- | --- | --- | --- | --- |
| CCCCCC(=O)[O][Pt]([Cl])([Cl])[O]C(=O)CCCCC.N.N | A549/DDP xenograft, female nude mice | dose not given, together with: survivin siRNA 0.5 mg/kg | tumour volume doubling time | 7 days |
